Published values from different studies.
Numbered parts are unrelated; each lists some results of a single study.

Set 1
Target: Ras GTPase-activating protein-binding protein 1, full length (G3BP1, Homo sapiens, UniProt Q13283)
UniProt Q13283, sequence (whole entry, looked up): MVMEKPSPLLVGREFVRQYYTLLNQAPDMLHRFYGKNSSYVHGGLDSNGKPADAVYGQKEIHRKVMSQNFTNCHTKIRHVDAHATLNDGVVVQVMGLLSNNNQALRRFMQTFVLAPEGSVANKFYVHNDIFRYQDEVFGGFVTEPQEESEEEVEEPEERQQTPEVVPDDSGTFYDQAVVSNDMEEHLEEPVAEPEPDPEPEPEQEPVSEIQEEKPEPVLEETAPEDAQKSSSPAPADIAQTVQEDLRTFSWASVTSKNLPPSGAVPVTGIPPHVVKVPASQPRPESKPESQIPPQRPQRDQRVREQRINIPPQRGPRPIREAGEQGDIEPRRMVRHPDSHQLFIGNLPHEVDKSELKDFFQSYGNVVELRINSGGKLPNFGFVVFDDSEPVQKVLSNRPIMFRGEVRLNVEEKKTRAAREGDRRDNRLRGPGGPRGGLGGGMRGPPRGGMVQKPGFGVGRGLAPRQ
Method: RNA Bind-n-Seq
Molecule type: RNA
Sample: in vitro
Concentration: 200 nM
Notes: whole 134-nt RNA, ends assumed
With: 150 mM LiCl
Baseline: input library
Reading: higher = stronger binding
All molecules: 7-deaza-guanosine replaces G
All sequences stand within: GGGAGUUCUACAGUCCGACGAUC … UGGAAUUCUCGGGUGUCAAGG
Sequence	log2 enrichment
UCCUGUGCUACACAUCGUAUGUACCGAAUCGGAAAAAAGGGGAAAAAAGGGAAAAAAGGGAAAGUAUUAUGUUACGCCGUUCGGAUCUGC	-0.115
CAAGUCCUGUGCUACACAUCGUAUGUACCGAAUCGGGAGGGUUUUUGGGUUUGGGAAAGUAUUAUGUUACGCCGUUCGGAUCUGCACUUC	-0.551
GUCCUGUGCUACACAUCGUAUGUACCGAAUCGGGGAAAAAGGGAAAAAGGAAAAAGGGAAAGUAUUAUGUUACGCCGUUCGGAUCUGCAC	0.00877
UGGGAGGUGGAUUUUGUUUAUUUUUUUAGCUCAUUUCCAGGGGUGGGAAUUUUUUUUUAAUAUGUGUCAUGAAUAAAGUUGUUCUUGAAA	-0.215
UCCUGUGCUACACAUCGUAUGUACCGAAUCGGGGAGGGGUUUUUGGGGUUUUUUUGGGGAAAGUAUUAUGUUACGCCGUUCGGAUCUGCA	0.769
CUGUGCUACACAUCGUAUGUACCGAAUCGGGCCCCCCCGGGCCCCCCCGGGGCCCCCCCGGAAAGUAUUAUGUUACGCCGUUCGGAUCUG	-0.947
GCAGGAAGUAAAAACAAAAAGAAAUGCUUCGGAUAGUGGCAGGGGUGGGGGUUGCUAAGGAAAGGGUGGGAUGGGAGUGGGUAAAGAGUU	-0.0127
CACAGACAACACGCACCCACACAGACACAGAGGGAAGGGGUUGGGAUGGGGACAGGGUGCACAGCAGGGCCGGGUAGGACCCCAGCCCCU	0.329
CACAGACAUCACGCACCCACACAGACACAGAGGGAAGGGGUUGGGAUGGGGACAGGGUGCACAGCAGGGCGGGGUAGGACCCCAGCCCCU	0.374
AAGUCCUGUGCUACACAUCGUAUGUACCGAAUCGGGGUUUGGGUUUGGGGUUUGGGAAAGUAUUAUGUUACGCCGUUCGGAUCUGCACUU	-0.73
GCAGGAAGUAAAAACAAAUGCAAAUGCUUCGGAUAGUGGCAGGGGUGGGGGUUGCUAAGGAAAGGGUGGGAUGGGAGUGGGUAAAGAGUU	-0.225

Set 2
Target: Interferon regulatory factor 5, full length, phosphomimetic (IRF5, Homo sapiens, UniProt Q13568-2, residues 1-514, S451D/S453D/S456D/S462D)
Method: protein-binding microarray
Molecule type: double-stranded DNA, one strand shown
Sample: in vitro
Concentration: 940 nM top
Notes: 60-bp whole probe
With: salmon DNA 0.4 mg/ml
Baseline: random background probes
Reading: higher = stronger binding
All sequences stand within: GCCTAGCAC … GTCTTGATTCGCTTGACGCTGCTG
Sequence	fitted relative affinity
GACGGACTAGGGTTTCGGGACGTGCTA	1.07 z-score
GACGGACTGCTTTTCGTGACGTGCTAG	-0.461 z-score
TGTCCTTTCACTTTAACTTAGTGCTAG	2.91 z-score
TCATCTGTCAGTTTTGAACTGTGCTAG	0.0284 z-score
TTAGGTATCGGGACTGGGTTGGTGCTA	4.24 z-score
TTAGGTTTCGATACTGGGTTAGTGCTA	12.7 z-score
GACGATTTCAGTATCGAAACGTGCTAG	3.73 z-score
TTAGATATCGGTTTCGATTAGTGCTAG	7.69 z-score
TCAGGTAGCCTTATCCCTAAGTGCTAG	-0.308 z-score
TTAGGTATCCTTCCCCTTTAGTGCTAG	0.716 z-score
GACGCTATCGGACTGGGGACGTGCTAG	-0.23 z-score
CTAGATTTCGGGTTTCGATTAGTGCTA	5.61 z-score
ATCCATTTTGGTTTTCATTAGTGCTAG	1.3 z-score
TTAGATATCAGACTGGATTTGTGCTAG	-0.341 z-score
GTATATACACTTATGACTTTGTGCTAG	0.613 z-score
TTAGATTTCATTTTCGATTAGTGCTAG	2.61 z-score
TCACCTAGCCATTATGAGACTGTGCTA	-0.0272 z-score
GAAGGTCTCGGTATCGGGACGTGCTAG	3.96 z-score
GTGGCCTTTGTTTCCAGGCAGTGCTAG	0.283 z-score
TTAGGTTTCGACTATCGGATAGTGCTA	9.88 z-score
TTAGGTATCGGCACTGGGTTAGTGCTA	4.13 z-score
GACGTACTGAGTCTCGAGACGTGCTAG	0.784 z-score
CCCTATTTAAGGCTAGGCACGTGCTAG	-0.0629 z-score

Set 3
Target: Histone acetyltransferase KAT6A, winged helix 1, GST fusion (KAT6A, Homo sapiens, UniProt Q92794, residues 1-85)
Method: protein binding microarray
Molecule type: double-stranded DNA, one strand shown
Sample: in vitro
Concentration: not given
Notes: 8-mer, flanks averaged, mean of 2 arrays, mostly near background
Baseline: not given
Reading: higher = stronger binding
Construct (chain): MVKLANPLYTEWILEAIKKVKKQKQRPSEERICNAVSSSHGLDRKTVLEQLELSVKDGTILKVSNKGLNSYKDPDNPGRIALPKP
Sequence	E-score
AATGTTTA	-0.166
GACTTTGA	-0.137
ACAGTACC	0.0391
CAAATGTC	-0.0534
ATCGTATA	-0.104
GCGAAGCA	0.0655
CAAGGCTG	-0.243
CGTGTTAG	0.242
GCAATTCC	-0.00888
AATGTAAG	-0.133
GGCCTACA	-0.0806
GCTAGCCA	-0.0602
CATGACGA	-0.0415
AAATGGTC	-0.189
CAAATGAC	-0.16
CGAGATAG	-0.0709
GGTTGGAC	-0.0417
AGCACCAA	-0.187
GAACCCCA	-0.172
AACTGCGA	0.152
ATCGTATC	-0.157
GAGCTAAC	-0.0887
ACAAACCA	-0.263
GACTTTCC	-0.119
CTACGAGC	-0.0567

Set 4
Target: RNA binding protein fox-1 homolog 2, RRM domain, GST-SBP tag (RBFOX2, Homo sapiens, UniProt O43251-10, residues 100-194)
Method: RNA Bind-n-Seq
Molecule type: RNA
Sample: in vitro
Concentration: 365 nM
Notes: natural RNA segment, single round, ends assumed
Baseline: no-protein control
Reading: higher = stronger binding
All sequences stand within: GGGAGUUCUACAGUCCGACGAUC … UGGAAUUCUCGGGUGCCAA
Construct (chain): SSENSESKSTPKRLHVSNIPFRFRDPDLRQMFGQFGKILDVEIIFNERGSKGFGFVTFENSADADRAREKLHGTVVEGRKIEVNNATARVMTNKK
Sequence	RBNS enrichment (R)
CAAAGGUCGUCUGUCUGCUUUUGAUUGUCUACAUCACAGCAAUCCCUGGGAAUUUCUAUCCAUUUUAAAUGCUGCCGCUUUCAUCUGUUUAGCCAGCACACCCAAUGGUU	0.212
UUCGAGGCCUGUGUCUGGUGGGAGACAAGGCUGUGUGUCUCUGUGUGUGUAAACAAACGUGCACGUGCUCGCACUUAGCUGCGCAGGCUUUCUGUGCAUGAACUAGAAAA	1.45
UGUGCUAUUUAUUCUUGCACGAUUUAGGCAAUUAUCUCUCUUCCAGGGAGUACCUUUUUUUCUAGUUGAGAAUUAAUAAUGGUCCAUCUCUUUUGAUCAUAUCAAGCUAG	0.299
CUCGUCUCAGAGGCCAGCAAGCUGGGGCCUGUCCGCCACGGUGCCCUGUGCACCUUUGGGCUGCCCUGGCCCCCACUCUCCCGGGCCGCCCACCACAGGCUCUUAAUGGG	0.208
CUUAACCAGCUCCUGAUCUCAAGAACACUAAAAGGCUAGCCGUUGUCUGUCUAGAGUGAAUACUUCACAGAUCUCAUUUAGGGAGAGCCUGGUCUAUGGACUAAGCUGAA	0.32
AGCGUGAGUAGCUCUUUUGUUUACUGUUUACACCCCUUAUUGGCAUGUCAACUCCUGUACUUCCCUUACUCUGUUGCCUUUCUUGAGAUGCAUUGUCCUGCUAACCCACA	0.966
GUGUCAGAAAUACUUAAACAGUGGUAAAUGCACAUGUUACUUUUAAAUCAUUAGGAUAACUCCUGUCUGGUUCCUAAUGAAUAAAAGGUGUGUUAAAUACCAAGAUUAUU	0.604
UUGGGAAGAACUGAUUUCUUUUUUUAAAUCAAAGUUUUGUAAAUAGAUCUUACUUCUGAAUUUGAAUCGGUGGAAGACCUCAGUUCACAUGCUAAGUCAAAACGGCCCUU	0.375
UAGCAGAGUUCAUGAAACCACAGCUCUUCCAAGCCAUGUACAUAGUUCAUGCUCAGCCCUGAACUCUAAUCUAGCCUGCAACCAGCCCUUCUCUCCUCUUAUCAUCUAAC	0.388
AAAUUAUAUUAUAGAAUUUAAAUAACUAGCUUUCACAAUCAGUUUGUGUGUAAAAUGUCAUUUAAAGUGUUUUCAAAUGCAUUGCUCUUACAAUUUAUUUUCCUUUAACU	0.502
CAGGGGCAGAAAACAUCUCCUUCAACCCGUCCCCACUCCUUCCUCUGCAUGACCUUGGGCAAACCCUUGCCCUUUCAAGCCAUCAGCUCCUGCCUCUCUGCCAUGAGGGC	2.23
GGGGGAGAGCCCCCCAGCUUCCUGCCACAGAGCACAGGCCUGUAUGUAGCUCAUAGUCCCCACAAUGUCCUGGGAAGGAACAGAGGACUGGUACAGUCCCAGCUCUGCUC	0.577

A few entries again (set 4):
Sequence	RBNS enrichment (R)
UAGCAGAGUUCAUGAAACCACAGCUCUUCCAAGCCAUGUACAUAGUUCAUGCUCAGCCCUGAACUCUAAUCUAGCCUGCAACCAGCCCUUCUCUCCUCUUAUCAUCUAAC	0.388
CUUAACCAGCUCCUGAUCUCAAGAACACUAAAAGGCUAGCCGUUGUCUGUCUAGAGUGAAUACUUCACAGAUCUCAUUUAGGGAGAGCCUGGUCUAUGGACUAAGCUGAA	0.32
GUGUCAGAAAUACUUAAACAGUGGUAAAUGCACAUGUUACUUUUAAAUCAUUAGGAUAACUCCUGUCUGGUUCCUAAUGAAUAAAAGGUGUGUUAAAUACCAAGAUUAUU	0.604
UUCGAGGCCUGUGUCUGGUGGGAGACAAGGCUGUGUGUCUCUGUGUGUGUAAACAAACGUGCACGUGCUCGCACUUAGCUGCGCAGGCUUUCUGUGCAUGAACUAGAAAA	1.45
GGGGGAGAGCCCCCCAGCUUCCUGCCACAGAGCACAGGCCUGUAUGUAGCUCAUAGUCCCCACAAUGUCCUGGGAAGGAACAGAGGACUGGUACAGUCCCAGCUCUGCUC	0.577
AAAUUAUAUUAUAGAAUUUAAAUAACUAGCUUUCACAAUCAGUUUGUGUGUAAAAUGUCAUUUAAAGUGUUUUCAAAUGCAUUGCUCUUACAAUUUAUUUUCCUUUAACU	0.502
UGUGCUAUUUAUUCUUGCACGAUUUAGGCAAUUAUCUCUCUUCCAGGGAGUACCUUUUUUUCUAGUUGAGAAUUAAUAAUGGUCCAUCUCUUUUGAUCAUAUCAAGCUAG	0.299
UUGGGAAGAACUGAUUUCUUUUUUUAAAUCAAAGUUUUGUAAAUAGAUCUUACUUCUGAAUUUGAAUCGGUGGAAGACCUCAGUUCACAUGCUAAGUCAAAACGGCCCUU	0.375
CUCGUCUCAGAGGCCAGCAAGCUGGGGCCUGUCCGCCACGGUGCCCUGUGCACCUUUGGGCUGCCCUGGCCCCCACUCUCCCGGGCCGCCCACCACAGGCUCUUAAUGGG	0.208
